Experimental data of several laboratories.
Parts stem from different laboratories: compare values within a part only.
Sequence of UniProt P10721 (whole entry, looked up): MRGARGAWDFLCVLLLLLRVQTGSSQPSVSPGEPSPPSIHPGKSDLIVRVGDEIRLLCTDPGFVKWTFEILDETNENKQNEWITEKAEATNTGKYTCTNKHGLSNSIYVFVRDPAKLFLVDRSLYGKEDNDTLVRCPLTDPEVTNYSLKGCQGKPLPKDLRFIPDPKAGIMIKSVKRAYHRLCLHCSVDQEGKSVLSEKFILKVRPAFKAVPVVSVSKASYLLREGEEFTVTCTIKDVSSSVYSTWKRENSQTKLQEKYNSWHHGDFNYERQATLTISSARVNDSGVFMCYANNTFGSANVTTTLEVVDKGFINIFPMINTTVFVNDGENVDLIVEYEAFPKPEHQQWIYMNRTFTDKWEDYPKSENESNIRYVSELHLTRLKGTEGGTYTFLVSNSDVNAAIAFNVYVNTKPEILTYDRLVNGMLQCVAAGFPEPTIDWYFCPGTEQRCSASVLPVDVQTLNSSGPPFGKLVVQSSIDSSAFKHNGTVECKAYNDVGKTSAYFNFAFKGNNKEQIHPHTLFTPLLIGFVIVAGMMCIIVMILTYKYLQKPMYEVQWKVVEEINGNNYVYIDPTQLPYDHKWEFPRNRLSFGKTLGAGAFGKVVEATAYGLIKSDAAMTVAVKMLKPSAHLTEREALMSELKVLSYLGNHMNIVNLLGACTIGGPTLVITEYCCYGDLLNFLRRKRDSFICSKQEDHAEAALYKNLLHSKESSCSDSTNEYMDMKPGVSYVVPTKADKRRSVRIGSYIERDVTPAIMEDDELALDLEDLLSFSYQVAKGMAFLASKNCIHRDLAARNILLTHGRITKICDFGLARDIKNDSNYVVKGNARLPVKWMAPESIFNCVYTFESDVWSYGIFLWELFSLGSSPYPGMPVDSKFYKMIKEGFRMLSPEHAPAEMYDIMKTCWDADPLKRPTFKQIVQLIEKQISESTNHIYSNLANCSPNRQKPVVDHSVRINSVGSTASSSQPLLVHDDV

Sample 1 — technique: DNA-protein interaction ELISA; molecule type: double-stranded DNA, one strand shown; sample: in vitro, bacterial lysate; tested at: not given; setting: whole dsDNA probe, crude lysate protein; baseline: highest signal in screen; direction: higher = stronger binding
Target: Probable WRKY transcription factor 33, C-terminal DNA-binding domain (WRKY33, Arabidopsis thaliana, UniProt Q8S8P5, residues 346-449)
Residues (chain): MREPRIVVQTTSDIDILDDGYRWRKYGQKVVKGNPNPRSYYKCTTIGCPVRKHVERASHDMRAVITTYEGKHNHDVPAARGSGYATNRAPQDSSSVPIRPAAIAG
For `AAAAAATTGCCGTCATAATTGTGGTAAAAA`, the relative absorbance was 26.9 % of maximum.
With `AAAAAACGCCGGACAATCAGGCGCTCAAAA` the relative absorbance was 59.9 % of maximum.
The relative absorbance of `AAAAAATGATGTTGGCGCATTTAAACAAAA` is reported as 33.5 % of maximum.
The relative absorbance of `AAAAAATCGCGTCCGTGCTCAATCCAAAAA` is reported as 31.7 % of maximum.
The relative absorbance of `AAAAAACTACGTATATTCAGGCCCTAAAAA` is reported as 31.5 % of maximum.
With `AAAAAAGTCGTCACGCACGTGAATACAAAA` the relative absorbance was 59.6 % of maximum.
`AAAAAAACGCTCAAGTCTATCAGTAGAAAA` gave a relative absorbance of 70 % of maximum.
With `AAAAAAGGTCCAGTCCACGTCATCAGAAAA` the relative absorbance was 99.6 % of maximum.

Sample 2 — technique: RNAcompete; molecule type: RNA; sample: in vitro; tested at: 20 nM; setting: 7-mer, probes averaged, single round; baseline: mean of 7-mers; direction: higher = stronger binding
Target: PABPC1L2, full length, GST fusion (mouse, UniProt A0ABA7IW68)
Construct (chain): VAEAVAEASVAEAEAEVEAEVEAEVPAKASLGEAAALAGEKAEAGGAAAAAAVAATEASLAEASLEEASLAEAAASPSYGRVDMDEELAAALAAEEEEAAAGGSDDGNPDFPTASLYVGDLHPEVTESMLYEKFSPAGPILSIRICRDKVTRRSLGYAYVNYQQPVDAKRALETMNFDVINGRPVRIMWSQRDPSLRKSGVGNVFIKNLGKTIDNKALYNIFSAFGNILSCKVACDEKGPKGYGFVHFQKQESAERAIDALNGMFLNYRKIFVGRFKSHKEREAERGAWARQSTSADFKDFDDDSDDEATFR
For `UAGGCUG`, the 7-mer Z-score was 0.00436.
`CCUUCGG` has a 7-mer Z-score of -0.443.
The 7-mer Z-score of `AGGGCUG` is reported as 0.253.
`CGGAGCA` gave a 7-mer Z-score of 0.102.
For `GAGAACU`, the 7-mer Z-score was -0.137.
For `CGGGGAU`, the 7-mer Z-score was 0.131.
With `UGGAUAC` the 7-mer Z-score was 0.12.
For `UCAACCG`, the 7-mer Z-score was -0.204.

Other studies, line by line
For `CO[C@H]1CC[C@H](CNc2ccc(S(=O)(=O)NC(=O)c3ccc(N4CCN(CC5=C(c6ccc(Cl)cc6)CC(C)(C)CC5)CC4)cc3Oc3cnc4[nH]ccc4c3)cc2[N+](=O)[O-])CC1`, the remaining binding was 100% (Mast/stem cell growth factor receptor Kit, autoinhibited (KIT, Homo sapiens, UniProt P10721); cell-free assay, competition with immobilised ligand; 1 µM).
`PhoQ, residues 284 288 289 292 302 303 QWQEDG` has a fold induction of 17.4 (PhoP, residues 12 14 15 18 19 LYHSL (Escherichia coli, UniProt P23836); Sort-seq, measured: YFP reporter; E. coli; PhoQ-PhoP variant library, with: 10 µM Mg2+; baseline: high Mg2+ state, higher = stronger signaling).

A few entries again (sample 2):
With `UGGAUAC` the 7-mer Z-score was 0.12.
For `UAGGCUG`, the 7-mer Z-score was 0.00436.
